# Measured values from different studies.
# Each line is one published result; not all experiments were run side by side. ± marks the error that the study gave.
SMILES,test,system,conditions,quantity,result
C[C@]1(CO)Cc2ncn(-c3ccc(C#N)c(Cl)c3)c2C(=O)O1,,human,20 mg single dose,subjects with drug-related orthostatic hypotension,0%
CC(C)(C)c1cc(-n2nc3ccccc3n2)c(O)c(C(C)(C)C)c1,exposure assessment,"human, age 1-2 years",sunscreen,mean daily dermal uptake,2.43 ng/kg body weight/day
COc1cc2c(Oc3ccc4[nH]c(C)cc4c3F)ccnc2cc1OCC1(N)CC1,,paediatric refractory sarcoma patients,10 mg,AST elevation incidence,0%
CO[C@H]1C[C@@H]2CC[C@@H](C)[C@@](O)(O2)C(=O)C(=O)N2CCCC[C@H]2C(=O)O[C@H]([C@H](C)C[C@@H]2CC[C@@H](OC(=O)NCCOCCOCCOCCOCCOCCOCCOCCOCCC(=O)N3CCc4cc(Cn5nc(-c6ccc7oc(N)nc7c6)c6c(N)ncnc65)ccc4C3)[C@H](OC)C2)C[C@@H](O)[C@H](C)/C=C(\C)[C@@H](O)[C@@H](OC)C(=O)[C@H](C)C[C@H](C)/C=C/C=C/C=C/1C,,patients with advanced solid tumours,"intravenous, 16 mg weekly, grade 3 or higher",decreased appetite incidence,0%
Cc1cc(C)c(CNC(=O)c2cc(Cl)c3c(c2C)O[C@@](C)([C@H]2CC[C@H](N(C)C)CC2)O3)c(=O)[nH]1,,"human, relapsed/refractory NHL","concentration not given, all TEAEs, grade 5",Pruritus incidence,0%
O=C(O)CCCOc1ccc(F)cc1-c1cc(-c2ccccc2C(F)(F)F)n(-c2ccccc2)n1,,"male Crl:CD(SD) rats, prostate","intravenous, 25 µg/kg, 14 d",relative organ weight,0.12 ± 0.03 g%
COc1ncnn2ccc(-c3cnc4nc(C)n(Cc5nnc([C@@H](C)F)o5)c4c3)c12,,human patients,"oral, dose not given",incidence of grade 1 taste disorder,7.1%
C=CCNc1c(O)cc2c(O)c1C[C@@H](C)C[C@H](OC)[C@H](O)[C@@H](C)/C=C(\C)[C@H](OC(N)=O)[C@@H](OC)/C=C\C=C(/C)C(=O)N2,,unresectable or metastatic sarcoma,"intravenous, 150 mg/m^2, grade 3-4 lab change",patients with AST increase,0%
CN1CC[C@@H](c2c(O)cc(O)c3c(=O)cc(-c4ccc(C(F)(F)F)cc4Cl)oc23)[C@@H]1CO,item: Dyspnea,B-cell malignancies,"oral, 150 mg, intermittent dosing",patients with adverse event,0%
O=C(c1ccc(F)c(F)c1Nc1ccc(I)cc1F)N1CC(O)([C@@H]2CCCCN2)C1,,patients aged sample A to sample B years,"oral, dose not given",AE leading dose modification,29%

# A few entries again:
SMILES,test,system,conditions,quantity,result
CO[C@H]1C[C@@H]2CC[C@@H](C)[C@@](O)(O2)C(=O)C(=O)N2CCCC[C@H]2C(=O)O[C@H]([C@H](C)C[C@@H]2CC[C@@H](OC(=O)NCCOCCOCCOCCOCCOCCOCCOCCOCCC(=O)N3CCc4cc(Cn5nc(-c6ccc7oc(N)nc7c6)c6c(N)ncnc65)ccc4C3)[C@H](OC)C2)C[C@@H](O)[C@H](C)/C=C(\C)[C@@H](O)[C@@H](OC)C(=O)[C@H](C)C[C@H](C)/C=C/C=C/C=C/1C,,patients with advanced solid tumours,"intravenous, 16 mg weekly, grade 3 or higher",decreased appetite incidence,0%
